Measured values from different studies.
Parts stem from different laboratories: compare values within a part only.

Series 1
Target: Ras GTPase-activating protein-binding protein 1, RRM domain (G3BP1, Homo sapiens, UniProt Q13283)
Sequence of UniProt Q13283 (whole entry, looked up): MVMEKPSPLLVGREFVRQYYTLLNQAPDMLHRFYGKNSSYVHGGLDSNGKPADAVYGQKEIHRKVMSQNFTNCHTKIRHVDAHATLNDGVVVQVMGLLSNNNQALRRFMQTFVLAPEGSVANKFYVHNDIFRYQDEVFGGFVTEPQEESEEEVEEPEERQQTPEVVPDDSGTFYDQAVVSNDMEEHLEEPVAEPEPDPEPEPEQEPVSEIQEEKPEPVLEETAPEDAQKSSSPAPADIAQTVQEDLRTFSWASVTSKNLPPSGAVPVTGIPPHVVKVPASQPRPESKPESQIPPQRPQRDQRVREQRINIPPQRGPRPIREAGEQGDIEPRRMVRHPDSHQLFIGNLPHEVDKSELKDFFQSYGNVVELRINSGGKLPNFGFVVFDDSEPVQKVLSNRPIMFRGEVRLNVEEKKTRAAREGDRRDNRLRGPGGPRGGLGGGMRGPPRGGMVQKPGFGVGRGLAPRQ
Technique: RNA Bind-n-Seq
Molecule type: RNA
Sample: in vitro
Tested at: 1 µM
Setting: whole 134-nt RNA, ends assumed
Added: 150 mM KCl
Baseline: input library
Reading: higher = stronger binding
All sequences stand within: GGGAGUUCUACAGUCCGACGAUC … UGGAAUUCUCGGGUGUCAAGG
`CCUCAAGUCCUGUGCUACACAUCGUAUGUACCGAAUCGGAGGUUUUUGGUGGAAAGUAUUAUGUUACGCCGUUCGGAUCUGCACUUCCAG` has a log2 enrichment of -0.166.
`ACCAUGCAGGUGGGCAUCUUUGGGAAGUGGGGCAAGGGGGGGAUAGGGAGGGGGGUAACACUCUGGGAACAGGUGGUCCCAGGUCGUUUC` gave a log2 enrichment of 0.666.
`UCCUGUGCUACACAUCGUAUGUACCGAAUCGGAAAAAAGGGGAAAAAAGGGGAAAAAAGGAAAGUAUUAUGUUACGCCGUUCGGAUCUGC` has a log2 enrichment of 0.00627.
`CACAGACAACACGCACCCACACAGACACAGAGGGAAGGGGUUGGGAUGGGGACAGGGUGCACAGCAGGGCGGGGUAGGAUCCCAGCCCCU` has a log2 enrichment of -0.244.
With `UUGUUCUGGCAUAAACAUAACAUUGAGAAGUCCCUUGCUGAUCUCCCUAAUUUCACUCCCUUUCCGGAUGAGUGGACAGUGGAAGAUAAA` the log2 enrichment was -0.0736.
With `AGUCCUGUGCUACACAUCGUAUGUACCGAAUCGGGCCCCCGGGCCCCCGGCCCCCGGAAAGUAUUAUGUUACGCCGUUCGGAUCUGCACU` the log2 enrichment was -0.375.
The log2 enrichment of `UUCCUCAAGUCCUGUGCUACACAUCGUAUGUACCGAAUCGGCGGCGGCGGGAAAGUAUUAUGUUACGCCGUUCGGAUCUGCACUUCCAGC` is reported as -0.164.

Series 2
Target: Interferon regulatory factor 5, full length, phosphomimetic (IRF5, Homo sapiens, UniProt Q13568-2, residues 1-514, K96S/S451D/S453D/S456D/S462D)
Technique: protein-binding microarray
Molecule type: double-stranded DNA, one strand shown
Sample: in vitro
Tested at: 250 nM
Setting: 60-bp whole probe
Added: salmon DNA 0.4 mg/ml
Baseline: random background probes
Reading: higher = stronger binding
All sequences stand within: GCCTAGCAC … GTCTTGATTCGCTTGACGCTGCTG
For `TGAGGTATCGGTATCGGTTAGTGCTAG`, the log fluorescence was 8.15 z-score.
For `CCCTGTTTCCATCTCTCAAAGTGCTAG`, the log fluorescence was 1.41 z-score.
With `TGTTACTAGGGTTACATAATGTGCTAG` the log fluorescence was 0.0637 z-score.
With `TCAGAATTTACTTTCTAACTGTGCTAG` the log fluorescence was 1.74 z-score.
With `TTAGGTTCCCTTTTCCTTGAGTGCTAG` the log fluorescence was 0.395 z-score.
With `TCAGCTTCCTCTCTGCCACTGTGCTAG` the log fluorescence was -0.00462 z-score.
With `GCCGGTCTCCTTCTCCTGACGTGCTAG` the log fluorescence was -0.352 z-score.
For `GACGGACTGCTTCTCCTGGCGTGCTAG`, the log fluorescence was -0.466 z-score.
`TTAGGTATCGACTCTCGGTTAGTGCTA` gave a log fluorescence of 3.35 z-score.

Series 3
Target: Prothrombin, mature alpha-thrombin (F2, Homo sapiens, UniProt P00734)
Technique: aptamer microarray, sandwich
Molecule type: DNA with 2'F-ANA
Sample: in vitro
Tested at: 200 nM
Setting: whole 15-mer aptamer, many near background
Added: Cy3 exosite-II aptamer, 400 nM
Reading: higher = stronger binding
Strand: GGTTGGTGTGGTTGG
For `2'F-ANA at 1 2 4 5 6 7 8 11 15`, “mean fluorescence intensity” read 53.9 a.u.
`2'F-ANA at 6 12 13 14 15`: “mean fluorescence intensity” 187 a.u.
Under “mean fluorescence intensity”, `2'F-ANA at 2 4 8 9 13 15` is recorded as 199 a.u.
Under “mean fluorescence intensity”, `2'F-ANA at 2 3 5 7 8 11 12` is recorded as 208 a.u.
Under “mean fluorescence intensity”, `2'F-ANA at 1 4 5 6 7 9 11 12 14` is recorded as 132 a.u.
`2'F-ANA at 2 6 7 8 15` — result for “mean fluorescence intensity”: 454 a.u.
Under “mean fluorescence intensity”, `2'F-ANA at 1 2 6 7 8 11 12 13` is recorded as 272 a.u.
`2'F-ANA at 1 3 5 6 7 10` — result for “mean fluorescence intensity”: 49.2 a.u.
`2'F-ANA at 1 3 5 6 8 10 11 12`: “mean fluorescence intensity” 48.7 a.u.

Further values, each from its own experiment
With `PhoQ, residues 284 288 289 292 302 303 SMYGEC` the fold induction was 1.35 (PhoP, residues 12 14 15 18 19 NYFTV (Escherichia coli, UniProt P23836); Sort-seq, item: YFP reporter; E. coli; PhoQ-PhoP variant library, added: 10 µM Mg2+; baseline: high Mg2+ state, higher = stronger signaling).

Repeated from above (series 3):
`2'F-ANA at 1 3 5 6 7 10` — result for “mean fluorescence intensity”: 49.2 a.u.
`2'F-ANA at 1 3 5 6 8 10 11 12`: “mean fluorescence intensity” 48.7 a.u.
